Measured values collected from several papers.
Parts stem from different laboratories: compare values within a part only. Changes are numbered by the printed parent chain.

Sample 1 — method: RNA Bind-n-Seq; form: RNA; matrix: in vitro; tested at: 200 nM; setting: whole 134-nt RNA, ends assumed; with: 150 mM KCl; reference: input library; reading: higher = stronger binding
Target: Fragile X messenger ribonucleoprotein 1, C-terminal low-complexity region (Fmr1, Mus musculus, UniProt P35922)
Shared flanks, not repeated: GGGAGUUCUACAGUCCGACGAUC … UGGAAUUCUCGGGUGUCAAGG
Oligonucleotide | log2 enrichment
AAGUCCUGUGCUACACAUCGUAUGUACCGAAUCGGUUUUUUUGGAAAAAAAGGAGGAAAGUAUUAUGUUACGCCGUUCGGAUCUGCACUU | -1.07
AAGUCCUGUGCUACACAUCGUAUGUACCGAAUCGGGAAAAAGGGAAAGGGUUUGGGAAAGUAUUAUGUUACGCCGUUCGGAUCUGCACUU | 0.202
UCAAGUCCUGUGCUACACAUCGUAUGUACCGAAUCGGAGGUUUGGUUUUUUUGGAAAGUAUUAUGUUACGCCGUUCGGAUCUGCACUUCC | -0.458
UGGACGAUGAAGAGGAAACAAUUGAAGAGGAGGAAGCAAAUGAAGGCGUUGUGGACCACCAAACAGAACUUUCUAAUUUAGCCAAGGAAG | 0.35
CCUCAAGUCCUGUGCUACACAUCGUAUGUACCGAAUCGGGAAGGGAAGGAAGGAAAGUAUUAUGUUACGCCGUUCGGAUCUGCACUUCCA | -0.274
AGUCCUGUGCUACACAUCGUAUGUACCGAAUCGGGGUUUUUGGGGAGGGGUUUGGGGAAAGUAUUAUGUUACGCCGUUCGGAUCUGCACU | 0.685
GUCCUGUGCUACACAUCGUAUGUACCGAAUCGGGAAAAAGGGAAAAAGGGAAAAAGGGAAAGUAUUAUGUUACGCCGUUCGGAUCUGCAC | -0.542
UAACUUUAGAGGAGGAUCUGAUGGAUAUGGCAGUGGACGUGGAUUUGGGGAUGGCUAUAAUGGGUAUGGAGGAGGACCGGGAGGUGGCAA | 0.195
UCUCCCCAGGAGCACAGAAAAUGGUUCUGCCCCCUCCACAGCUCCCACAGACCAGAGCCGGCCACCGUUGGAGGUGAGUCGCCCGCCCCU | 0.634

Sample 2 — method: DHFR PCA, deep sequencing; matrix: yeast; with: (+)-ABA 0.032 µM; reference: wild-type fitted maximum; reading: higher = stronger binding
Target: ABI1, truncated, D143A, DHFR fusion (Arabidopsis thaliana)
Setting: methotrexate growth selection, single substitutions
Parent: PYL1, truncated, DHFR fusion (Arabidopsis thaliana); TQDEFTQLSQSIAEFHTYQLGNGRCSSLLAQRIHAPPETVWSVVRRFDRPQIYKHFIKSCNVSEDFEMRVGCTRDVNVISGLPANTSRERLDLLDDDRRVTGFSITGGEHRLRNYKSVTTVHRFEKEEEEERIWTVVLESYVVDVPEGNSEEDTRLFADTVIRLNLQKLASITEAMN
Substitution | relative binding score
T1H | 22.1%
I57D | 0.408%
N85L | 56.6%
A13Q | 29.3%
T1R | 22.6%
T154N | -14.9%
D97T | 31.9%
L29Y | 0.444%
A30Q | 25%
I162H | 4.91%
P83H | 12.8%
S9P | -1.94%
K116D | -2.72%
L112F | 6.66%
M68G | -1.5%
S42T | 5.47%

Sample 3 — method: EMSA with sequencing; form: double-stranded DNA, one strand shown; matrix: in vitro; tested at: 10 and 20 nM; reference: negative control set to 0; reading: higher = stronger binding
Target: Hepatocyte nuclear factor 3-alpha (Foxa1, Mus musculus, UniProt P35582, residues 1-468, full length assumed)
Sequence of UniProt P35582 (whole entry, looked up): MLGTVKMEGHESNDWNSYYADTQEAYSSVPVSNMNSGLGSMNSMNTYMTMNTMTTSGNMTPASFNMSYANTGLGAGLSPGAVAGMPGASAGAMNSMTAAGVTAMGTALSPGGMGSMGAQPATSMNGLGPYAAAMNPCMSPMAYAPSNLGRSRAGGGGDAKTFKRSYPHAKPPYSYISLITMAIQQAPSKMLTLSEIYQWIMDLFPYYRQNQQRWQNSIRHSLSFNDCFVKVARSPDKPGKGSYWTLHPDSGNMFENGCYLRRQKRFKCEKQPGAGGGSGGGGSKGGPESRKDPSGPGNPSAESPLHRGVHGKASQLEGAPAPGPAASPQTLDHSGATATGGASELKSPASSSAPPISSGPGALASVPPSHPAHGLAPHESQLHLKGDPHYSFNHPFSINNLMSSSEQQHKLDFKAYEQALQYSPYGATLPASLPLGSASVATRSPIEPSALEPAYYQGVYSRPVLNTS
Setting: whole designed probe, mean of two concentrations, ends assumed
Shared flanks, not repeated: GTGAGCGGTGCCCATTGATGGGGAAC … TTTCACTGGGATCGTGGGGAC
Oligonucleotide | normalised bound fraction
AACATACATATGGTAAAAAATTGAAAAGAAACAAAAGATTATGTAACAGAAATGAATCTGCCACATACTCCAGATCCCACTGTCATTTCTCAGAGTAATCTTGAATGGAAGTATACCATACATGTTGTTGTATACTGTGTTTGCTGAAAACAGAAAGTATCCTGGTGCTCTGCCTAATTACAGCTGCACAGTA | 0.0343 ratio
ATCTGAAGGTTCTCAAGATCCTAAATGACTTCTGAAATTAAATTATGTTCAGTAAAAAGCTAAGTTAAACTCTTTAGGTTTTGAATAAACCTAAGTAATCTACAATTTTGTTGCACTAAAATAATACCTATCTTAAAAGTGGTTTCCCCAAACTATTAGCCAATCTCTTTCTCTAACCAAGCACTATTTTACC | -0.0528 ratio
TCCTCTGACAGATCAAATTATTAAATTCTGCTTGGGGAAGGTATGGGGCACTCCTCTTGGTTGAAGCAATGCTGTACTTTTTATTCCTGCTGAGTAAATAGCCTCAAGTCAAACTACTTGCCCTAACTAATGATCAAACATATCCAGGAATTCTGTACAAGAAATGCATTCTGCTCTCCTTTGAAGTGCATTG | 0.224 ratio
ATCTTCCCCCTCTTCCTTGCCCCACCAGCTCACCTTCCCGGGTTATTTGCAGATAGGAAAATAAATAAAGCCGGCATTCGTTAACCCTCTTCTGGCGCAAACTGCTGTTTGCTCTGGATGAATCATGGTCCTTTGGCGACGCCAGGCTCCGGGAGCATAAAGCGTCACACGGGGGCCATGATCCGGGGTGGCC | 0.345 ratio
ATCTTCCCCCTCTTCCTTGCCCCACCAGCTCACCTACGGGGGTTATTTGCACAAAGGAAAATAAATAAAGCCGGCATTCGTTAACCCTCTTCACGCGCATACTGCTGTTTGCTCTGGATCTAACATGGTCCTTTGGCGAGGCGTGGCTCCGGGAGAGCAAAGCACCGTGTCAGGGCCATGATCCGGGCTCGCC | 0.385 ratio

Sample 4 — method: protein binding microarray; form: double-stranded DNA, one strand shown; matrix: in vitro; tested at: not given; reference: not given; reading: higher = stronger binding
Target: Histone acetyltransferase KAT6A, both winged helices, GST fusion (KAT6A, Homo sapiens, UniProt Q92794, residues 1-181)
Setting: 8-mer, flanks averaged, mean of 2 arrays, mostly near background
Construct (chain): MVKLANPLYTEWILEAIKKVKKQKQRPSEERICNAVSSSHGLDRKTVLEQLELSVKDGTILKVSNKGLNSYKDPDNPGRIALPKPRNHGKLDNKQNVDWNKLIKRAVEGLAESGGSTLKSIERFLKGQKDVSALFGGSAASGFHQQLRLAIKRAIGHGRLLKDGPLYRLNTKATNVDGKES
Oligonucleotide | E-score
AACGGTTA | 0.131
AGGGTGAA | -0.216
AAAGCGTT | 0.0765
CGCTGTTA | 0.201
GGAAAACC | 0.085
GGAGCTAC | -0.12
ATGGGTCA | -0.203
CGGTTGCC | 0.155
CCCGCTCA | 0.228
CACGAATG | -0.209
CCCTTAGG | -0.24
CTATTCGC | -0.0165
AAAAAACG | 0.18
AAGGGGAA | -0.195
CATCATCG | -0.113
CGGTTGCA | 0.0895
AATAAAGA | -0.174
AATAGGTG | -0.297

Some of these lines once more (sample 1):
Oligonucleotide | log2 enrichment
UCAAGUCCUGUGCUACACAUCGUAUGUACCGAAUCGGAGGUUUGGUUUUUUUGGAAAGUAUUAUGUUACGCCGUUCGGAUCUGCACUUCC | -0.458
UGGACGAUGAAGAGGAAACAAUUGAAGAGGAGGAAGCAAAUGAAGGCGUUGUGGACCACCAAACAGAACUUUCUAAUUUAGCCAAGGAAG | 0.35
GUCCUGUGCUACACAUCGUAUGUACCGAAUCGGGAAAAAGGGAAAAAGGGAAAAAGGGAAAGUAUUAUGUUACGCCGUUCGGAUCUGCAC | -0.542
CCUCAAGUCCUGUGCUACACAUCGUAUGUACCGAAUCGGGAAGGGAAGGAAGGAAAGUAUUAUGUUACGCCGUUCGGAUCUGCACUUCCA | -0.274
UCUCCCCAGGAGCACAGAAAAUGGUUCUGCCCCCUCCACAGCUCCCACAGACCAGAGCCGGCCACCGUUGGAGGUGAGUCGCCCGCCCCU | 0.634
AAGUCCUGUGCUACACAUCGUAUGUACCGAAUCGGUUUUUUUGGAAAAAAAGGAGGAAAGUAUUAUGUUACGCCGUUCGGAUCUGCACUU | -1.07
AAGUCCUGUGCUACACAUCGUAUGUACCGAAUCGGGAAAAAGGGAAAGGGUUUGGGAAAGUAUUAUGUUACGCCGUUCGGAUCUGCACUU | 0.202
AGUCCUGUGCUACACAUCGUAUGUACCGAAUCGGGGUUUUUGGGGAGGGGUUUGGGGAAAGUAUUAUGUUACGCCGUUCGGAUCUGCACU | 0.685
